Measured values pooled from the literature.
A part holds a random share of what one study measured. Several values in a cell are separate wells, animals, samples, runs or records. pEC50: −log10 of the molar value.

Sample 1 — observed: enzyme activity; mode: inhibitor; concentration: 0.5 µM; relative to: control
Target: Serine/threonine-protein kinase B-raf (BRAF, Homo sapiens, UniProt P15056)
UniProt P15056, sequence (whole entry, looked up): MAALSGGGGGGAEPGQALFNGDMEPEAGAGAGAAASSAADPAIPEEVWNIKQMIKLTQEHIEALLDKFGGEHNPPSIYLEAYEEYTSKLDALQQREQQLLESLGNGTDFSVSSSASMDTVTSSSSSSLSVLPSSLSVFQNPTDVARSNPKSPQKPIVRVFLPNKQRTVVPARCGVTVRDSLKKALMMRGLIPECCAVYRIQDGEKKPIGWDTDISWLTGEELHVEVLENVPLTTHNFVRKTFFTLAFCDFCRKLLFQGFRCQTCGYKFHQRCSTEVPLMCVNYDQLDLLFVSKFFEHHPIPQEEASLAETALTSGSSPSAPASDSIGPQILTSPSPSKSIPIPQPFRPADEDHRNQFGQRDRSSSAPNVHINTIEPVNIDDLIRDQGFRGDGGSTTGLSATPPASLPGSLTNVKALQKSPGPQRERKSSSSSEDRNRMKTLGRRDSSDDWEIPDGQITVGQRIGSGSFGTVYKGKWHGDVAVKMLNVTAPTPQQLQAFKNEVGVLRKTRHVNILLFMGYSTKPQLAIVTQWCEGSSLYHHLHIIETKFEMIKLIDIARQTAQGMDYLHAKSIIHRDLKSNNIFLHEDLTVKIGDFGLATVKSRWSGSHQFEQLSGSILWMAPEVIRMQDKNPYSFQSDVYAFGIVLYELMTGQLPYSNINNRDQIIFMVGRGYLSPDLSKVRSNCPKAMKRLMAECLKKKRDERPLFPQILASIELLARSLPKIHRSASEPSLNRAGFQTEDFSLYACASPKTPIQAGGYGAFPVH
`COc1cc2ncnc(Nc3cccc(Cl)c3)c2cc1OC` has a remaining activity of 96%.
`CCN(CC)CCNC(=O)c1c(C)[nH]c(/C=C2\C(=O)Nc3ccc(F)cc32)c1C` gave a remaining activity of 106%.
`O=C(Nc1cccc(Nc2nccc(Nc3cccc(C(F)(F)F)c3)n2)c1)C1CC1` gave a remaining activity of 104%.
For `O=C1C(Cl)=C(N2C(=O)CCC2=O)C(=O)c2ccccc21`, the remaining activity was 96.3%.
For `O=C1c2ccccc2-c2n[nH]c3cccc1c23`, the remaining activity was 109%.
The remaining activity of `COc1cc2c(cc1OC)-c1[nH]nc(Nc3cccc(F)c3)c1C2` is reported as 93.8%.
`c1ccc(-c2[nH]ncc2-c2ccnc3ccccc23)nc1` has a remaining activity of 95.7%.
`Nc1cccc(-c2cc3c(Oc4cccc(O)c4)ncnc3[nH]2)c1` gave a remaining activity of 53.2%.
For `N#Cc1c(NC(=O)c2cccc3ccccc23)sc2c1CCCC2`, the remaining activity was 95.2%.
`CCOc1nc(NC(=O)Cc2cc(OC)ccc2OC)cc(N)c1C#N` has a remaining activity of 99.1%.
For `CN(C)C[C@H]1CCn2c(c(C3=C(c4cn(C)c5ccccc45)C(=O)NC3=O)c3ccccc32)C1`, the remaining activity was 95.2%.
`CCN(CC)CCNC(=O)c1c(C)[nH]c(/C=C2\C(=O)Nc3ccc(Cl)cc32)c1C` has a remaining activity of 109%.
For `N#C/C(=C\c1ccc(O)c(O)c1)C(=O)NCc1ccccc1`, the remaining activity was 109%.

Sample 2 — concentration: 1 µM; relative to: DMSO
Compound: CN1CCN(Cc2cc(NC(=O)c3ccc4c(c3)CN(c3ccccc3)CC4)cc(C(F)(F)F)c2)CC1
For normal colon patient-derived organoids; CellTiter-Glo; average of five organoid lines: viability read 78.7%.
normal colon patient-derived organoid sample E — viability: 94.4%.
For normal colon patient-derived organoid sample H: viability read 72.4%.
For normal colon patient-derived organoid sample G: viability read 82.1%.
For normal colon patient-derived organoid sample F: viability read 77.5%.
The viability was 67% (normal colon patient-derived organoid sample D).

Sample 3 — cell line: mouse MPNST tumor cells; method: high-content nuclear imaging; item: cell number; concentration: 10 µM; time: 12 h; setting: mean of 2 replicates; relative to: plate mean; direction: higher = more cells
`Cn1cnc2c1c(=O)[nH]c(=O)n2C` has a nuclei count of -0.767 z-score.
`O=C(CCSCc1ccco1)NNC(=O)N1Cc2ccccc2Oc2ccc(Cl)cc21` gave a nuclei count of 0.146 z-score.
`C#C[C@]1(O)CC[C@H]2[C@@H]3CCC4=CC(=O)CC[C@@H]4[C@H]3CC[C@@]21CC` gave a nuclei count of 0.349 z-score.
`COc1cc(C(=O)NS(=O)(=O)c2ccccc2C)ccc1Cc1cn(C)c2ccc(NC(=O)OC3CCCC3)cc12` gave a nuclei count of 0.553 z-score and -0.709 z-score.
With `CC(C)N1CCN(c2ccc(C(=O)c3c(-c4ccc(O)cc4)sc4cc(O)ccc34)cc2)CC1` the nuclei count was -1.1 z-score.
`C=C1c2c(Cl)ccc(O)c2C(O)=C2C(=O)[C@]3(O)C(O)=C(C(N)=O)C(=O)[C@@H](N(C)C)[C@@H]3[C@@H](O)[C@H]12.O=C(O)c1cc(S(=O)(=O)O)ccc1O` gave a nuclei count of 1.28 z-score.
For `CCCCCCCCNC(C)C(O)c1ccc(SC(C)C)cc1` (centres unmarked), the nuclei count was -5.03 z-score.
The nuclei count of `COc1ncc2cc(C(=O)Nc3cc(C(=O)NCc4cccc(Cl)c4)ccc3Cl)c(=O)[nH]c2n1` is reported as 0.707 z-score.
`COC(=O)CC1CC(c2ccc(O)cc2)=NO1` (centres unmarked) has a nuclei count of 2.84 z-score.
The nuclei count of `CC(C)(Oc1ccc(C2CC2(Cl)Cl)cc1)C(=O)O` (centres unmarked) is reported as 1.57 z-score.
With `CC1=C(C(=O)OC2CCCCC2)C(c2ccc([N+](=O)[O-])cc2)C2=C(CC(C)(C)CC2=O)N1` (centres unmarked) the nuclei count was -4.57 z-score.
The nuclei count of `CCC1(c2ncc[nH]2)Cc2ccccc2O1` (centres unmarked) is reported as 1.07 z-score.
`COc1ccc(CNC(=O)Nc2ncc([N+](=O)[O-])s2)cc1` gave a nuclei count of 4.84 z-score.
The nuclei count of `CO[C@H]1/C=C/O[C@@]2(C)Oc3c(C)c(O)c4c(O)c(c(/C=N/N5CCN(C6CCCC6)CC5)c(O)c4c3C2=O)NC(=O)/C(C)=C\C=C\[C@H](C)[C@H](O)[C@@H](C)[C@@H](O)[C@@H](C)[C@H](OC(C)=O)[C@@H]1C` is reported as 4.6 z-score.
With `Cc1csc(NC(=O)c2cc(F)cc(Oc3cncnc3)c2)n1` the nuclei count was 1.06 z-score.
The nuclei count of `C[C@]12CC[C@@H]3c4ccc(O)cc4CC[C@H]3[C@@H]1CCC2=O` is reported as 1.27 z-score.
With `CCCCc1nc(Cl)c(CO)n1Cc1ccc(-c2ccccc2-c2nnn[nH]2)cc1` the nuclei count was 0.875 z-score and 0.135 z-score.

Sample 4 — mode: agonist
Target: Beta-1 adrenergic receptor (ADRB1, Homo sapiens, UniProt P08588)
UniProt P08588, sequence (whole entry, looked up): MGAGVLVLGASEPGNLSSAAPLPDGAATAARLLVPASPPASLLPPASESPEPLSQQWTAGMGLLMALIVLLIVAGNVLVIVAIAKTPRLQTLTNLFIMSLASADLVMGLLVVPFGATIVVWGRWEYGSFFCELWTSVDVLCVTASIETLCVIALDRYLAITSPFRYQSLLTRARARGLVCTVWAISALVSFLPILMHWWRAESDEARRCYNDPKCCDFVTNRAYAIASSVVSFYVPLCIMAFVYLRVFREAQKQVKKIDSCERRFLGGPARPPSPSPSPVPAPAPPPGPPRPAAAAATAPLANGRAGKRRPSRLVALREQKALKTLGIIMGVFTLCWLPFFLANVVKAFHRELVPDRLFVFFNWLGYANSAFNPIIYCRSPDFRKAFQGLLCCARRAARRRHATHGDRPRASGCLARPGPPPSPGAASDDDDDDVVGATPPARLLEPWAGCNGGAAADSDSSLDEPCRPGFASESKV
For `Cc1ncc(-c2cc(C(=O)N3CCCCCCC3)c3cc(F)ccc3n2)cn1`, the pEC50 was 5.50.
`CN(C)CCNc1cc(-c2cccs2)nc2ccccc12` has a pEC50 of ≤ 4.00.
`Cc1cccc(NC(=O)c2sc3nc(-c4cc5ccc(O)cc5oc4=O)[nH]c(=O)c3c2C)c1` has a pEC50 of ≤ 4.00.
The pEC50 of `CC(CCc1ccc(O)cc1)NCC(O)c1ccc(O)cc1` (centres unmarked) is reported as ≤ 4.00.
The pEC50 of `Cn1cc(-c2cnc(Nc3ccc(F)cc3)c3c2CCO3)cn1` is reported as ≤ 4.00.
`Cc1nnc2n1CCN(c1nc(-c3ccccc3)c3ccccc3n1)C2` gave a pEC50 of ≤ 4.00.
For `CN(Cc1cccc(OCC(O)CN2CCOCC2)c1)Cc1ccc2nonc2c1` (centres unmarked), the pEC50 was ≤ 4.00.
For `CC(C)c1ccc(C(=O)N2CC(CNC(=O)C3CCOCC3)C3(C2)CN(c2ccccc2)C3)cc1` (centres unmarked), the pEC50 was ≤ 4.00.
`c1cncc(-c2cc(-c3cccc(N4CCOCC4)c3)cn3cncc23)c1` has a pEC50 of ≤ 4.00.
With `c1ccc(OCC2CN(Cc3ccc4[nH]ccc4c3)CC23CN(c2ccccc2)C3)cc1` (centres unmarked) the pEC50 was ≤ 4.00.
`Cc1cc(C(=O)Nc2ccc3ccccc3n2)c2cnn(C(C)C)c2n1` has a pEC50 of 4.95.
`CCc1sc(-c2cc3ccc(O)cc3oc2=O)nc1-c1cc(C)ccc1C` has a pEC50 of ≤ 4.00.
`COc1ccccc1NC(=O)c1cc2c(ccc3ccccc32)oc1=O` gave a pEC50 of ≤ 4.00.
`CC(C)n1cc(-c2cc(C(=O)N3CCC(C)(C)C3)c3ccc(F)cc3n2)cn1` has a pEC50 of ≤ 4.00.
For `CC(=O)N1CCN(c2ncccc2-c2cc(-c3ccccc3)nc3c(C)noc23)CC1`, the pEC50 was ≤ 4.00.
The pEC50 of `O=C(Cc1ccccc1)Nc1ccc([C@@H](O)[C@H]2COCC(=O)N2Cc2ccccc2F)cc1` is reported as ≤ 4.00.
`COc1ccccc1N1CCN(C(=O)C(C)[C@@H]2CCc3c(C)cc(OCCN4CCOCC4)c(C)c3C2)CC1` (some centres unmarked) has a pEC50 of ≤ 4.00.
